Values quoted from earlier work that unrelated publications cite.
Each line is one published result; not all experiments were run side by side. ± marks the error that the study gave.
KDR: Vascular endothelial growth factor receptor 2 (KDR, Homo sapiens, UniProt P35968)
UniProt P35968, sequence (whole entry, looked up): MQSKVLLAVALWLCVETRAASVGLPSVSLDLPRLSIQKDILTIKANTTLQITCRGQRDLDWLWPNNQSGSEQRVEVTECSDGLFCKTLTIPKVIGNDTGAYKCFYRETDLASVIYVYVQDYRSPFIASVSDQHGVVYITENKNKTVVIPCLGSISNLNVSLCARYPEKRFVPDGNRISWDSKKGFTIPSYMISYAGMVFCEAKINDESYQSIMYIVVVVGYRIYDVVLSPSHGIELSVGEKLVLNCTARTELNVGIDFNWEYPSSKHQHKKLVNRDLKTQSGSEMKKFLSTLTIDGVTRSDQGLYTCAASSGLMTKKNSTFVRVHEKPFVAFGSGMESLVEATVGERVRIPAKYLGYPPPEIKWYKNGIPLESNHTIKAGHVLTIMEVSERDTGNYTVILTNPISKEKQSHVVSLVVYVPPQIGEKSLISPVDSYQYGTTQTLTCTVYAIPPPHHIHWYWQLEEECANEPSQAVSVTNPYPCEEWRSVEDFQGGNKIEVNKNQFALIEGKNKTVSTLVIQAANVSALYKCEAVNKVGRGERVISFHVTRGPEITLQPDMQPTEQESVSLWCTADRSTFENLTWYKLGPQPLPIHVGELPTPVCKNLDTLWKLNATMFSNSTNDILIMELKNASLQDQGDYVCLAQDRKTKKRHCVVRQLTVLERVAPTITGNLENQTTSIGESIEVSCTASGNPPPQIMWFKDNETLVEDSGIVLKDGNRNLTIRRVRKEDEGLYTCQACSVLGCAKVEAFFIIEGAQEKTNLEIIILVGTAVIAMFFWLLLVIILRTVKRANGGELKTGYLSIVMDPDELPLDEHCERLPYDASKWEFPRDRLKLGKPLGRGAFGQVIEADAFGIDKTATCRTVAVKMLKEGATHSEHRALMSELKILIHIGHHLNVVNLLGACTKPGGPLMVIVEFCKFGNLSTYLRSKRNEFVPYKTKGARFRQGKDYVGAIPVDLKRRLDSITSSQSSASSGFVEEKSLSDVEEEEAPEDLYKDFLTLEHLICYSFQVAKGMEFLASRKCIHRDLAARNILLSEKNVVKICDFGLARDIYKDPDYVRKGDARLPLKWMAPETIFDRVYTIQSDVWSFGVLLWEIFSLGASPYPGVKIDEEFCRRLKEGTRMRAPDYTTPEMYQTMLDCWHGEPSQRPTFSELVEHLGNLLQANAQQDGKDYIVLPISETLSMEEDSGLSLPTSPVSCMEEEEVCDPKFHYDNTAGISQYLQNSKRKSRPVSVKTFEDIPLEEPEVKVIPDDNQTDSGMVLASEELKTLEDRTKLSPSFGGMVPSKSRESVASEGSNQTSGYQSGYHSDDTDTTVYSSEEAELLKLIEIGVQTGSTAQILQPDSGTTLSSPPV
UniProt P05804, sequence (whole entry, looked up): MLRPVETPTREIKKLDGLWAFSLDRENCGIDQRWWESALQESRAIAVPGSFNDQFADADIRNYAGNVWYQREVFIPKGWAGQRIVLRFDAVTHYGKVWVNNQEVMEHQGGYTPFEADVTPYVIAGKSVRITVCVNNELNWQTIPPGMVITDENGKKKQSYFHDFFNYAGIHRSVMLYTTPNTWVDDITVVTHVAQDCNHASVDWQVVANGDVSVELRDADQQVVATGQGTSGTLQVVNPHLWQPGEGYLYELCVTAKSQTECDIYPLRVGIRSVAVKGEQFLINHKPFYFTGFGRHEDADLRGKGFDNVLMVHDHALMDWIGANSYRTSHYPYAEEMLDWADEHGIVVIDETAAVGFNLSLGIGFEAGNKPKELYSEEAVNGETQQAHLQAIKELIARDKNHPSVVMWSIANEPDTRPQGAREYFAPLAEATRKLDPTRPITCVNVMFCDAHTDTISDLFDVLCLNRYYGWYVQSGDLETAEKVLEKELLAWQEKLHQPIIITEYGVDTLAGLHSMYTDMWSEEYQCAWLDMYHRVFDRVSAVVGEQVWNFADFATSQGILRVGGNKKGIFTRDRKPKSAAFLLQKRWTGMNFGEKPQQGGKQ
UniProt P52500, sequence (whole entry, looked up): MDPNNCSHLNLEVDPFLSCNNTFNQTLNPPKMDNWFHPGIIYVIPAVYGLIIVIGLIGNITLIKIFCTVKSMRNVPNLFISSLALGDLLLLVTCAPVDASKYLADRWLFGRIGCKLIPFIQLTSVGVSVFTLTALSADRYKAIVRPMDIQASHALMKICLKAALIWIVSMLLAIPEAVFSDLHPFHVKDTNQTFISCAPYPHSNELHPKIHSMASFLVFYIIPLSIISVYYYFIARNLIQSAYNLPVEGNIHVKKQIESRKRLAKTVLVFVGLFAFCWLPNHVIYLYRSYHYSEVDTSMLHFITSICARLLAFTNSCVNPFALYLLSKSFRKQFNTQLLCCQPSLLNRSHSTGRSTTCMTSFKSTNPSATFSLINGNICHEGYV
UniProt P23739, sequence (whole entry, looked up): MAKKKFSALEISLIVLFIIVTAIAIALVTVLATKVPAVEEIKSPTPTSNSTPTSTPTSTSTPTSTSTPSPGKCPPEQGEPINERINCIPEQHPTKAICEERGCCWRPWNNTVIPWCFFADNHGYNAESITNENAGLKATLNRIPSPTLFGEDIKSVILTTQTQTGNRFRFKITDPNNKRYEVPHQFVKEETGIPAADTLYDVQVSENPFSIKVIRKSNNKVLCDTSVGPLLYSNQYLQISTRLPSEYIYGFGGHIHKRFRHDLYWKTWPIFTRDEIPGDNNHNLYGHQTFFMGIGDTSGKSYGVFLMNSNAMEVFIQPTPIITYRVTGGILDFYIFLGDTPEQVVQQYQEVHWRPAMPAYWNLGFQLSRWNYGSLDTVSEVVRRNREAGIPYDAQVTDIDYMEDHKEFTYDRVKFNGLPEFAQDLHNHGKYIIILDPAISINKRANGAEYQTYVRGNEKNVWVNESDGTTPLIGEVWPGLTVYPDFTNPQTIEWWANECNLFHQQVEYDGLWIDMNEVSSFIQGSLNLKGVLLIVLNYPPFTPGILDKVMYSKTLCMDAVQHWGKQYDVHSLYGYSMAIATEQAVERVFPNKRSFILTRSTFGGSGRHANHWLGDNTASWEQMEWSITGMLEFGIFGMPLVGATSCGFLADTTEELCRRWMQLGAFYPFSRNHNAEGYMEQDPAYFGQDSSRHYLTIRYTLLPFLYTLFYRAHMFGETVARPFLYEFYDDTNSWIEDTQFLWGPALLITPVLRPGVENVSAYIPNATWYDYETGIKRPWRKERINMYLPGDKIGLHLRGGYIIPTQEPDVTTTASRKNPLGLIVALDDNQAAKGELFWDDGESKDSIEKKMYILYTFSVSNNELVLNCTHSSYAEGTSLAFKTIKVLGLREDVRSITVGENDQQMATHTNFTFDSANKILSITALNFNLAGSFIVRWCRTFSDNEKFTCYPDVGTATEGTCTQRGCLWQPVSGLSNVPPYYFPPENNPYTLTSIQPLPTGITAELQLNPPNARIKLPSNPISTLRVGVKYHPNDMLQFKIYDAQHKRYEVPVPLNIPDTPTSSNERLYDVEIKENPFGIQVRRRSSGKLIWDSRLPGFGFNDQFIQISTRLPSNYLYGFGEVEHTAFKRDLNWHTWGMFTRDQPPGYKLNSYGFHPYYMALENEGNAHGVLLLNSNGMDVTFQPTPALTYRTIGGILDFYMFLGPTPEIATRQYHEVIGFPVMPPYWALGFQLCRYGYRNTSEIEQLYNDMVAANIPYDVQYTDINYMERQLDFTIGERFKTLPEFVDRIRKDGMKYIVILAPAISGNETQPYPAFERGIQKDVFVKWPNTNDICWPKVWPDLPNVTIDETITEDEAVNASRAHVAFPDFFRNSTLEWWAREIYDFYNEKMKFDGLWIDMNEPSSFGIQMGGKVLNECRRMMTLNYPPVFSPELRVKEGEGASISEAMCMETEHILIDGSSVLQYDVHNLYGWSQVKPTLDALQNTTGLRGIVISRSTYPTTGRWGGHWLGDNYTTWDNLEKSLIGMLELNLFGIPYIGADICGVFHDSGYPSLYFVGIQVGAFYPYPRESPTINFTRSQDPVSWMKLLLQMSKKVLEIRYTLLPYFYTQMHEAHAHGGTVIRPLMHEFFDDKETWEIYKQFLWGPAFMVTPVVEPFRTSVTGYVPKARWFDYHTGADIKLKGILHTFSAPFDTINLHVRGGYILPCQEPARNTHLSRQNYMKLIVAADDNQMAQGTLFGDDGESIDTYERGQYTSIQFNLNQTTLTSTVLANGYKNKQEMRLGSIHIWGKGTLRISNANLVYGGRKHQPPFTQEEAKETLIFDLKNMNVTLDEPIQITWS
UniProt O75936, sequence (whole entry, looked up): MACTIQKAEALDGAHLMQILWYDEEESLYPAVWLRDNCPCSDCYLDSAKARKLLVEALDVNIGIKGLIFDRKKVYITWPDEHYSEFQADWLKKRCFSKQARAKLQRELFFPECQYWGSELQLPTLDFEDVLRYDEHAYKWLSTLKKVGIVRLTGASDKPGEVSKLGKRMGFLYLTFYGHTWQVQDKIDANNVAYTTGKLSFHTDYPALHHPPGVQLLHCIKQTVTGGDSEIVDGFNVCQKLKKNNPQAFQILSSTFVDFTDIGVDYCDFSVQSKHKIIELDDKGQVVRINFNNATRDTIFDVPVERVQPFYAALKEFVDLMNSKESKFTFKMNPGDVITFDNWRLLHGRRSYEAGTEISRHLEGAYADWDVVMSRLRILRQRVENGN
UniProt P11474, sequence (whole entry, looked up): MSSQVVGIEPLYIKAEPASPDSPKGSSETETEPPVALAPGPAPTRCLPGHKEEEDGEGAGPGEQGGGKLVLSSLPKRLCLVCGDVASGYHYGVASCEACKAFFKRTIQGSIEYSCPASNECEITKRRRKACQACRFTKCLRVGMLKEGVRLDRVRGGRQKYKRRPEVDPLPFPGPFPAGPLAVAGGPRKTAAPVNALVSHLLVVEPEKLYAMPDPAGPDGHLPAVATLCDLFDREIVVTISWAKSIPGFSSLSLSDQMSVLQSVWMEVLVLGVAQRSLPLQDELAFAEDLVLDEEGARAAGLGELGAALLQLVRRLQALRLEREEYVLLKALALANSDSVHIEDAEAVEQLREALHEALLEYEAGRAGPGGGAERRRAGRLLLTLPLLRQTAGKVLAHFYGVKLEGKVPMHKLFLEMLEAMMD

O=C(NN=Cc1ccc(O)cc1)Nc1cc2c(Nc3ccc(F)c(Cl)c3)ncnc2cc1OC1CCOC1 (centres unmarked)
IC50 (EGFR (Homo sapiens, UniProt P00533, L858R/T790M)): > 1000 nM

COc1c(NC(=O)c2ccc(NC(=O)c3ccc(NC(=O)[C@H](CC#N)NC(=O)c4ccc(NC(=O)/C(C)=C/c5ccc(O)cc5)cc4)cc3)c(OC)c2O)ccc(C(=O)O)c1O
IC50 (DNA gyrase; concentration not given): 40 nM

O=C(O)CC[C@H](O)C(=O)O
IC50 (BBOX1 (Homo sapiens, UniProt O75936); enzyme activity, inhibitor): 142000 nM

COC(=O)[C@H](C)NC(=O)[C@H](C)NC(=O)[C@H](CCCCNC(C)=S)NC(=O)c1ccc(C(=O)c2ccc(OC/C=C/CN=[N+]=[N-])cc2)cc1
IC50 (SIRT2 (Homo sapiens, UniProt Q8IXJ6); enzyme activity, inhibitor): 2980 ± 40 nM

O=C(O)[C@@H]1[C@@H](O)[C@H](O)[C@@H](O)[C@@H]2O[C@@H]21
IC50 (Beta-glucuronidase (uidA, Escherichia coli, UniProt P05804); enzyme activity, inhibitor, 4-MU fluorogenic substrate): 500 ± 100 nM

N#Cc1c(NC(=O)Nc2cccc3ccccc23)c(C(=O)Nc2ccccc2)n2c1CCC2
IC50 (CDK2; enzyme activity, inhibitor): 25 nM

N=C(N)NCCC[C@H](NC(=O)[C@H](CSSC[C@H](NC(=O)[C@H](Cc1ccc(O)cc1)NC(=O)[C@H](Cc1c[nH]c2ccccc12)NC(=O)[C@H](CCCNC(=N)N)NC(=O)[C@@H](N)Cc1c[nH]c2ccccc12)C(=O)N[C@@H](CCCNC(=N)N)C(N)=O)NC(=O)[C@H](Cc1ccc(O)cc1)NC(=O)[C@H](Cc1c[nH]c2ccccc12)NC(=O)[C@H](CCCNC(=N)N)NC(=O)[C@@H](N)Cc1c[nH]c2ccccc12)C(N)=O (single isomer, unassigned)
IC50 (RecG helicase; Holliday junction unwinding, inhibitor; dimer equivalents): 60 nM

CC(=O)N[C@H]1NC[C@H](C(=O)O)[C@H](O)[C@@H]1O
IC50 (cytosolic sialidase (rat mammary gland); enzyme activity, inhibitor): 990000 nM

OC[C@H](OCc1ccccc1)[C@H](O)C[S@@+]1C[C@@H](O)[C@H](O)[C@H]1CO
IC50 (Si (Rattus norvegicus, UniProt P23739); sucrase activity, inhibitor; rat intestinal disaccharidases): 440 nM

CC(C)C[C@@H](CN[C@@H](Cc1ccc(Cl)cc1)C(N)=O)NC(=O)[C@H](Cc1c[nH]cn1)NC(=O)CNC(=O)[C@@H](NC(=O)[C@H](C)NC(=O)[C@H](Cc1c[nH]c2ccccc12)NC(=O)[C@H](CCC(N)=O)NC(=O)[C@H](N)Cc1ccccc1)C(C)C
IC50 (Gastrin-releasing peptide receptor (Rattus norvegicus, UniProt P52500); binding; literature species comparison): 41 ± 5 nM

O=C(CSC(=S)Nc1ccc([N+](=O)[O-])cc1)c1cc2ccccc2oc1=O
IC50 (alpha-glucosidase): 85000 ± 4000 nM

CN1C(=O)/C(=N\CCc2noc(-c3ccc(F)cc3)n2)c2ccccc21
IC50 (VEGFR-2; enzyme activity): 35.6 ± 1.56 nM

CCCCOc1ccc(S(=O)(=O)N(Cc2ccc(N(CC(=O)OC)S(C)(=O)=O)cc2)c2ccc(CN(Cc3ccc(C)cc3)S(C)(=O)=O)cc2)cc1
IC50 (ESRRA (Homo sapiens, UniProt P11474)): 1470 nM

C[C@@H](c1cc(OCC(F)F)ccn1)n1cnc2c(N)nc(Cl)nc21
IC50 (PDE7A (Homo sapiens, UniProt Q13946); enzyme activity): > 10000 nM

C/C(=N\NC(=O)c1ccc([N+](=O)[O-])cc1)c1ccc(NC(=O)c2cccnc2)cc1
IC50 (KDR; kinase activity, inhibitor): 240 nM

C[C@@H](C(=O)N/N=C1\C(=O)Nc2c(Cl)ccc(Cl)c21)c1ccc(O)cc1
IC50 (c-Met kinase): 7 nM

S=C(Nc1ccccc1)Nc1ccc(Nc2nc(/C=C/c3ccc(Br)cc3)nc3ccccc23)cc1
IC50 (KDR): 60 nM
